# Measurements from different studies.
# Compare with care: the assays were run in different laboratories.
# Method: steady-state kinetics
# B1: FMO3 E158K (Homo sapiens, UniProt P31513); chain GKKVAIIGAGVSGLASIRSCLEEGLEPTCFEKSNDIGGLWKFSDHAEEGRASIYKSVFSNSSKEMMCFPDFPFPDDFPNFMHNSKIQEYIIAFAKEKNLLKYIQFKTFVSSVNKHPDFATTGQWDVTTERDGKKESAVFDAVMVCSGHHVYPNLPKKSFPGLNHFKGKCFHSRDYKEPGVFNGKRVLVVGLGNSGCDIATELSRTAEQVMISSRSGSWVMSRVWDNGYPWDMLLVTRFGTFLKNNLPTAISDWLYVKQMNARFKHENYGLMPLNGVLRKEPVFNDELPASILCGIVSVKPNVKEFTETSAIFEDGTIFEGIDCVIFATGYSFAYPFLDESIIKSRNNEIILFKGVFPPLLEKSTIAVIGFVQSLGAAIPTVDLQSRWAAQVIKGTCTLPSMEDMMNDINEKMEKKRKWFGKSETIQTDYIVYMDELSSFIGAKPNIPWLFLTDPKLAMEVYFGPCSPYQFRLVGPGQWPGARNAILTQWDRSLKPMQTRVVGRLQKPCFFFHWLKLFAIPILLIAVFLVLT
# B2: HCT R356E (Coleus scutellarioides, UniProt E8ZAP2); chain MKIHVRDSTLVRPSAATPAVSLWNSNVDLVVPNFHTPSVYFYRPSGADNFFDTAVMKAALGRALVSFYPMAGRLKRDEDGRVEIDCNAEGVLFVEAESDGTVDDYGDFAPSLELRRLIPAVDYSQGISAYPLLVLQVTFFKCGGVSLGVGMQHHAADGFSGLHFINTWSDMARGLDITLPPFIDRTLLSARDPPQPQFKHVEYQPPPAMKTYEPAETVVSIFKLTKDQLTTLKAKSKEDGNTTTYSSYEMLSGHVWRCTCLARGLPEEQETKLYIATDGRSRLQPQLPPGYFGNVIFTATPLAVAGDLGSKPVWYAASKIHDALARMDNDYLRSALDFLELQPDLKALVRGAHTFECPNLGITSWVRLPIHDADFGWGRPIFMGPGGIAYEGLSFVLPSPTNDGSLSVAISLQAEHMKLFEKLLYQI
# B3: UGT1A9 (Homo sapiens, UniProt O60656); chain GKLLVVPMDGSHWFTMRSVVEKLILRGHEVVVVMPEVSWQLGRSLNCTVKTYSTSYTLEDLDREFKAFAHAQWKAQVRSIYSLLMGSYNDIFDLFFSNCRSLFKDKKLVEYLKESSFDAVFLDPFDNCGLIVAKYFSLPSVVFARGILCHYLEEGAQCPAPLSYVPRILLGFSDAMTFKERVRNHIMHLEEHLLCHRFFKNALEIASEILQTPVTEYDLYSHTSIWLLRTDFVLDYPKPVMPNMIFIGGINCHQGKPLPMEFEAYINASGEHGIVVFSLGSMVSEIPEKKAMAIADALGKIPQTVLWRYTGTRPSNLANNTILVKWLPQNDLLGHPMTRAFITHAGSHGVYESICNGVPMVMMPLFGDQMDNAKRMETKGAGVTLNVLEMTSEDLENALKAVINDKSYKENIMRLSSLHKDRPVEPLDLAVFWVEFVMRHKGAPHLRPAAHDLTWYQYHSLDVIGFLLAVVLTVAFITFKCCAYGYRKCLGKKGRVKKAHKSKTH
# B4: BPHL (Homo sapiens, UniProt Q86WA6); chain SVTSAKVAVNGVQLHYQQTGEGDHAVLLLPGMLGSGETDFGPQLKNLNKKLFTVVAWDPRGYGHSRPPDRDFPADFFERDAKDAVDLMKALKFKKVSLLGWSDGGITALIAAAKYPSYIHKMVIWGANAYVTDEDSMIYEGIRDVSKWSERTRKPLEALYGYDYFARTCEKWVDGIRQFKHLPDGNICRHLLPRVQCPALIVHGEKDPLVPRFHADFIHKHVKGSRLHLMPEGKHNLHLRFADEFNKLAEDFLQ
# B5: FabZ (Campylobacter jejuni, UniProt A1VXZ7); chain MIDVMQIQEILPHRYPFLLVDKITELKVKEVVLGYKNISISDHVFMGHFPGHPIYPGVLILEGMAQTGGVLAFESMEDKVDPKSKVVYFTGIDGAKFRNPVRPGDRLDYEMSVVKNRGNMWIFKGQAFVDGNLVAEAELKAMIVDK
# B6: enzyme (Tanacetum cinerariifolium, UniProt H6U1I8); chain SQQAAALFIFGDSVFDPGNNNHINTHVNFKANFWPYGQSYFSSPTGRFSDGRIIPDFIAEYASLPIIPAYLEPNNDFTHGANFASAGAGALIASHAGLAVGLQTQLRYFGDLVDHYRQNLGDIKSRQLLSDAVYLFSCGGNDYQSPYYPYTQEQYVDIVIGNMTNVIKGIYEKGGRKFGVVNVPLIGCWPGMRAKQPGNTCNTEVDELTRLHNQAFAKRLEQLEKQLEGFVYAKFDLSTAILNRMKNPSKYGFKEGESACCGSGPFGGNYDCGRIKEFGLCDNATEYFFFDPFHPNELASRQFAEMFWDGDSMVTQPYNLKALFEGKPSTKYLPNDEL
# B7: enzyme (Vitis vinifera, UniProt F6HSW4); chain MAVDSGLSSPLGPPACEKDAKALQFIEEMTRNPDQVQEKILAEILSQNGETEYLQRFKLAGATDRDTFKSKVPVVTYEDLQPDIQRIANGDRSPILSSHPISEFLTSSGTSAGERKLMPTIHEEWDRRQKLYSLLMPVMNLYVPGLDKGKGLYFLFVKSETKTPSGLVARPVLTGYYRSEHFKKRPYDPYNVYTSPDEAILCVDSFQSMYAQMLCGLLMHKEVLRVGAVFASGLLRAIRFLQVHWQQLAHDISTGILNPKITDPSVREGLAGILKPSQELADFIIQECSGGNWERIITRIWPNTKYLDVIVTGAMAQYIPTLDYFSGGIPLACTMYASSECYFGLNLKPMSKPSEVSYTIMPNMGYFEFLPHDPSAPPLSRDSPPRLVDLADVEVGKEYELVITTYAGLCRYRVGDILQVTGFHNSAPQFQFIRRKNVLLSIDSDKTDEAELQKAVENASLLLREFNTSVVEYTSFADTKTIPGHYVIYWELLVKDPSNSPTDTVLKQCCLAMEESLNTVYRQGRVADNSIGPLEIRVVKSGTFEELMDYAISRGASINQYKVPRCVNFTPIMELLDSRVLSTYFSPAAPHWTPERRRTD
# B8: UGT1A1 (Homo sapiens, UniProt P22309); chain HAGKILLIPVDGSHWLSMLGAIQQLQQRGHEIVVLAPDASLYIRDGAFYTLKTYPVPFQREDVKESFVSLGHNVFENDSFLQRVIKTYKKIKKDSAMLLSGCSHLLHNKELMASLAESSFDVMLTDPFLPCSPIVAQYLSLPTVFFLHALPCSLEFEATQCPNPFSYVPRPLSSHSDHMTFLQRVKNMLIAFSQNFLCDVVYSPYATLASEFLQREVTVQDLLSSASVWLFRSDFVKDYPRPIMPNMVFVGGINCLHQNPLSQEFEAYINASGEHGIVVFSLGSMVSEIPEKKAMAIADALGKIPQTVLWRYTGTRPSNLANNTILVKWLPQNDLLGHPMTRAFITHAGSHGVYESICNGVPMVMMPLFGDQMDNAKRMETKGAGVTLNVLEMTSEDLENALKAVINDKSYKENIMRLSSLHKDRPVEPLDLAVFWVEFVMRHKGAPHLRPAAHDLTWYQYHSLDVIGFLLAVVLTVAFITFKCCAYGYRKCLGKKGRVKKAHKSKTH
# B9: enzyme C48S (Schizosaccharomyces pombe, UniProt Q9Y7P0); chain MFTGLVEAIGVVKDVQGTIDNGFAMKIEAPQILDDCHTGDSIAVNGTSLTVTDFDRYHFTVGIAPESLRLTNLGQCKAGDPVNLERAVLSSTRMGGHFVQGHVDTVAEIVEKKQDGEAIDFTFRPRDPFVLKYIVYKGYIALDGTSLTITHVDDSTFSIMMISYTQSKVIMAKKNVGDLVNVEVDQIGKYTEKLVEAHIADWIKKTQA
# B10: acryloyl-CoA reductase (Metallosphaera sedula, UniProt A4YGN2); chain MKAVVVKGHKQGYEVREVQDPKPASGEVIIKVRRAALCYRDLLQLQGFYPRMKYPVVLGHEVVGEILEVGEGVTGFSPGDRVISLLYAPDGTCHYCRQGEEAYCHSRLGYSEELDGFFSEMAKVKVTSLVKVPTRASDEGAVMVPCVTGMVYRGLRRANLREGETVLVTGASGGVGIHALQVAKAMGARVVGVTTSEEKASIVGKYADRVIVGSKFSEEAKKEDINVVIDTVGTPTFDESLKSLWMGGRIVQIGNVDPTQSYQLRLGYTILKDIAIIGHASATRRDAEGALKLTAEGKIRPVVAGTVHLEEIDKGYEMLKDKHKVGKVLLTT
# B11: enzyme (Halalkalibacterium halodurans, UniProt Q9KCN8); chain MLNVTQLQEATTFIQQQIETKPTIGLILGSGLGILADEIEQPVKVPYSDIPHFPVSTVQGHAGQLVIGMLEGKQVIAMQGRFHFYEGYSLEVVTFPVRVMKALGVEQIIVTNAAGGVNESFEAGDLMIIRDHINNMAQNPLIGPNDEAFGVRFPDMSNAYSERLRTLAKEKGNTLNLKLQEGVYVANTGPVYETPAEVRMIRKLGGDAVGMSTVPEVIVARHAGLEVLGISCISNMAAGILPQPLSHDEVIETTERVRQDFLNLVKAIVKDM
# B12: protein (UniProt A0A4Y6I1F8); chain MGSEVVSKKHEFGALEVEGIDFRASVAALGSTKKLVLGGAGFRGLEINGNLVKFTAIGIYVEEAIIPHLSPKLGGKTVEELCANELLFEEVLSAPFDKLIRVVFLLPLTGPQYSEKVVERIGLLPNPGLKEESIKQFLEIFKAENFPPRTSLVCSFTEDGLKIAFMKGPDFPEESDAVIEDKYFARAFLATIIAKDGVSPMAKLSFAERVSKYL
# B13: CMBL (Homo sapiens, UniProt Q96DG6); chain MANEAYPCPCDIGHRLEYGGLGREVQVEHIKAYVTKSPVDAGKAVIVIQDIFGWQLPNTRYIADMISGNGYTTIVPDFFVGQEPWDPSGDWSIFPEWLKTRNAQKIDREISAILKYLKQQCHAQKIGIVGFCWGGTAVHHLMMKYSEFRAGVSVYGIVKDSEDIYNLKNPTLFIFAENDVVIPLKDVSLLTQKLKEHCKVEYQIKTFSGQTHGFVHRKREDCSPADKPYIDEARRNLIEWLNKYM
# UniProt P09950, sequence (whole entry, unmodified, looked up): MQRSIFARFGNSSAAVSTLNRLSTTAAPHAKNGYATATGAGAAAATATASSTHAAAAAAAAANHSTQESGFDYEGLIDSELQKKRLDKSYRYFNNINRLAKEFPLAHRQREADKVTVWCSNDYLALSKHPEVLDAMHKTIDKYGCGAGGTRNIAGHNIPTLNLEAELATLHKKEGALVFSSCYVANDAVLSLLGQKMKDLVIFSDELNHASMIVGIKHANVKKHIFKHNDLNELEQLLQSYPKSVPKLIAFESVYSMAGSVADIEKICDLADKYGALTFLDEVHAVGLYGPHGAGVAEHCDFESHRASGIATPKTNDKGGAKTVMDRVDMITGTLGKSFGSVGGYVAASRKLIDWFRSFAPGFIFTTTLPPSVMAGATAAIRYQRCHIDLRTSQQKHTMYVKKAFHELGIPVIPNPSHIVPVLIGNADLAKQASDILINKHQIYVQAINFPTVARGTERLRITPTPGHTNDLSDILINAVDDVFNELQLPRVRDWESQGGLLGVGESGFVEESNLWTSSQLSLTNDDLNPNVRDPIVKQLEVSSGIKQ
Molecule,substrate,matrix,pH,temperature,notes,with,Vmax
B1 (FMO3 E158K),CN1CCC[C@H]1c1cccnc1,HEK293 microsomes,,37 °C,not purified,NADPH regenerating system,9.8e-06 µmol/min/mg
B2 (HCT R356E),NCc1ccc(O)c(O)c1,,pH 8,,pseudo-first-order,p-coumaroyl CoA,8.55 µmol/min/mg
B3 (UGT1A9),O=c1cc(-c2ccccc2O)oc2cc(O)cc(O)c12,,pH 7.4,37 °C,,,0.000862 µmol/min/mg
B4 (BPHL),CC(C)[C@H](N)C(=O)NCc1cccc(NC=NN)c1,,pH 7.4,37 °C,,,0.00412 µmol/min/mg
B5 (FabZ),C/C=C/C(=O)SCCNC(=O)CCNC(=O)[C@H](O)C(C)(C)COP(=O)(O)OP(=O)(O)OC[C@H]1O[C@@H](n2cnc3c(N)ncnc32)[C@H](O)[C@@H]1OP(=O)(O)O,,pH 7.5,room temperature,"NaCl 500 mM, reverse hydration reaction",,0.182 µmol/min/mg
B6 (enzyme),CC/C=C\CC1=C(C)[C@@H](O)CC1=O,,pH 7.5,25 °C,,,0.1 µmol/min/mg
B7 (enzyme),O=C(O)Cc1cccc2ccccc12,,pH 8.6,25 °C,,,0.436 µmol/min/mg
B8 (UGT1A1),COc1cc2c(cc1CC=C(C)C)C(=O)C[C@@H](c1ccc(O)cc1)O2,,pH 7.4,37 °C,,,0.00057 µmol/min/mg
B9 (enzyme C48S),Cc1nc2c(=O)[nH]c(=O)nc-2n(C[C@H](O)[C@H](O)[C@H](O)CO)c1C,,pH 7.2,37 °C,apparent,,0.027 µmol/min/mg
B10 (acryloyl-CoA reductase),C=CC(=O)SCCNC(=O)CCNC(=O)[C@H](O)C(C)(C)COP(=O)(O)OP(=O)(O)OC[C@H]1O[C@@H](n2cnc3c(N)ncnc32)[C@H](O)[C@@H]1OP(=O)(O)O,,pH 6.5,65 °C,substrate made in situ,"ATP, CoA, NADPH",7.6 µmol/min/mg
B11 (enzyme),Nc1nc2c(ncn2[C@@H]2O[C@H](CO)[C@@H](O)[C@H]2O)c(=O)[nH]1,,pH 8,,,,0.122 µmol/min
B12 (protein),O=C(/C=C/c1ccc(O)cc1)c1ccc(O)cc1O,,,,,,0.514 µmol/min/mg
"HEM1 (Saccharomyces cerevisiae, UniProt P09950)",CC(C)(COP(=O)(O)OP(=O)(O)OC[C@H]1O[C@@H](n2cnc3c(N)ncnc32)[C@H](O)[C@@H]1OP(=O)(O)O)[C@@H](O)C(=O)NCCC(=O)NCCSC(=O)CCC(=O)O,,pH 7.4,30 °C,,,0.087 µmol/min/mg
B13 (CMBL),CCCc1nc(C(C)(C)O)c(C(=O)OCc2oc(=O)oc2C)n1Cc1ccc(-c2ccccc2-c2nnn[nH]2)cc1,lysate,pH 7.4,37 °C,not purified,,0.0246 µmol/min/mg

# Excerpt of the above:
Molecule,substrate,matrix,pH,temperature,notes,with,Vmax
B2 (HCT R356E),NCc1ccc(O)c(O)c1,,pH 8,,pseudo-first-order,p-coumaroyl CoA,8.55 µmol/min/mg
